Results gathered from unrelated publications.
Protocols differ between the studies behind these lines. Numbers after ± are the reported error.
OPRD1: Delta-type opioid receptor (OPRD1, Homo sapiens, UniProt P41143)
Chain of UniProt P41143 (whole entry, looked up): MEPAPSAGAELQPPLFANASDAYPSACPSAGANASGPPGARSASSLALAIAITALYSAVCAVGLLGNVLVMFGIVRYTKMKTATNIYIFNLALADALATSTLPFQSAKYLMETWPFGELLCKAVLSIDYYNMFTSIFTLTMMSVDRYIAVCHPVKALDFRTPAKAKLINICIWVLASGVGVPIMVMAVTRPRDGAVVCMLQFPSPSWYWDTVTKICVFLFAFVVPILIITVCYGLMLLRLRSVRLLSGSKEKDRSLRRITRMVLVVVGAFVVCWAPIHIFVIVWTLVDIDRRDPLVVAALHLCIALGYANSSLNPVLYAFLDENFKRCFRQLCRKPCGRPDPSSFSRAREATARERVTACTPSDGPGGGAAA

For `COC(=O)c1cc2c(=O)n3ccccc3nc2n1Cc1ccccc1`, the inhibition was 62.3% (Severe acute respiratory syndrome coronavirus 2; viral replication; Vero; 1 µM).
`CC(C)C[C@H](NC(=O)[C@H](CO[C@@H]1O[C@H](CO)[C@@H](O[C@@H]2O[C@H](CO)[C@H](O)[C@H](O)[C@H]2O)[C@H](O)[C@H]1O)NC(=O)[C@H](CCCCN)NC(=O)[C@H](CC(C)C)NC(=O)[C@H](C)NC(=O)[C@H](CCCCN)NC(=O)[C@H](CCC(=O)O)NC(=O)[C@H](C)NC(=O)[C@H](CC(C)C)NC(=O)[C@H](CC(N)=O)NC(=O)[C@@H]1CCCN1C(=O)[C@H](CC(C)C)NC(=O)[C@H](Cc1ccccc1)NC(=O)CNC(=O)[C@H](NC(=O)[C@@H](N)Cc1ccc(O)cc1)[C@H](C)O)C(N)=O` has a Ki of 12 nM (OPRD1; ligand displacement, radioligand; pH 7.5, cell membranes).
With `CC[C@H](C)[C@H](NC(=O)CNC(=O)[C@H](C)NC(=O)[C@H](CCC(=O)O)NC(=O)[C@@H]1CCCN1C(=O)[C@H](CC(=O)O)NC(=O)[C@H](C)NC(=O)[C@H](CCC(=O)O)NC(=O)[C@H](C)N)C(=O)NCC(=O)N[C@@H](C)C(=O)N[C@H](C(=O)N[C@@H](CC(C)C)C(=O)N[C@@H](CCCCN)C(=O)N[C@H](C(=O)N[C@@H](CC(C)C)C(=O)N[C@H](C(=O)N[C@H](C(=O)NCC(=O)N[C@@H](CC(C)C)C(=O)N1CCC[C@H]1C(=O)N[C@@H](C)C(=O)N[C@@H](CC(C)C)C(=O)N[C@H](C(=O)N[C@@H](CO)C(=O)N[C@@H](Cc1c[nH]c2ccccc12)C(=O)N[C@H](C(=O)N[C@@H](CCCCN)C(=O)N[C@@H](CCCNC(=N)N)C(=O)N[C@@H](CCCCN)C(=O)N[C@@H](CCCNC(=N)N)C(=O)N[C@@H](CCC(N)=O)C(=O)N[C@@H](CCC(N)=O)C(N)=O)[C@@H](C)CC)[C@@H](C)CC)[C@@H](C)O)[C@@H](C)O)C(C)C)C(C)C` the HD50 was 11.8 ± 0.6 µmol/L (human erythrocytes, washed; 1 h, 37 °C, 2% v/v RBC suspension).
The inhibition of `C=CCOC(=O)C12CCC(C)(C)CC1C1=CCC3C4(C)CCC(OC5OC(CO)C(O)C(O)C5O)C(C)(C)C4CCC3(C)C1(C)CC2` (stereo not shown) is reported as 27.6% (Severe acute respiratory syndrome coronavirus 2; viral replication; 293T/ACE2; 20 µM).
For `Nc1ncnc2c1ncn2[C@@H]1O[C@H](CSCc2cccc(C(=O)O)c2)[C@@H](O)[C@H]1O`, inhibition read “no inhibition” (Severe acute respiratory syndrome coronavirus 2; viral replication, outcome no inhibition, N-protein immunofluorescence; Calu-3; 200 µM).
The inhibition of `CC(=O)OC1(C)CC(C=C(C)CCC=C(C)C)OC2(C=C(CO)C3CC(=O)C(C)=CC3O2)C1` (stereo not shown) is reported as 90.6% (Severe acute respiratory syndrome coronavirus 2; viral replication, inhibitor; Calu-3; 50 µM).
`CCCCCCCCCCCCCCCC(=O)N[C@@H](CCC(=O)NCCOCCOCCC(=O)NCCOCCOCCC(=O)NCCCC[C@H](NC(=O)[C@H](CC(=O)O)NC(=O)[C@H](CC(C)C)NC(=O)[C@H](Cc1ccc(O)cc1)NC(=O)[C@H](CCCCN)NC(=O)[C@H](CO)NC(=O)[C@H](Cc1ccc(O)cc1)NC(=O)[C@H](CC(=O)O)NC(=O)[C@H](CO)NC(=O)[C@@H](NC(=O)[C@H](Cc1ccccc1)NC(=O)[C@@H](NC(=O)CNC(=O)[C@H](CCC(N)=O)NC(=O)[C@@H](CO)NC(=O)[C@@H](N)Cc1c[nH]cn1)[C@@H](C)O)[C@@H](C)O)C(=O)N[C@@H](CCCNC(=N)N)C(=O)N[C@@H](CCCNC(=N)N)C(=O)N[C@@H](C)C(=O)N[C@@H](CCC(N)=O)C(=O)N[C@@H](CC(=O)O)C(=O)N[C@@H](Cc1ccccc1)C(=O)N[C@H](C(=O)N[C@@H](CCC(N)=O)C(=O)N[C@@H](Cc1c[nH]c2ccccc12)C(=O)N[C@@H](CC(C)C)C(=O)N[C@@H](CC(C)C)C(=O)N[C@@H](CC(N)=O)C(=O)N[C@H](C(=O)NCC(=O)NCC(=O)N1CCC[C@H]1C(=O)N[C@@H](CO)C(=O)N[C@@H](CO)C(=O)NCC(=O)N[C@@H](C)C(=O)N1CCC[C@H]1C(=O)N1CCC[C@H]1C(=O)N1CCC[C@H]1C(=O)N[C@@H](CO)C(N)=O)[C@@H](C)O)C(C)C)C(=O)O` gave a half-life of 29.9 min (rhesus monkey, plasma; intravenous, 15.3 µg/kg, single dose).
With `C=CCOC(=O)C12CCC(C)(C)CC1C1=CCC3C4(C)CCC(OC5OC(COC(=O)c6ccccc6)C(OC(=O)c6ccccc6)C(OC(=O)c6ccccc6)C5OC(=O)c5ccccc5)C(C)(C)C4CCC3(C)C1(C)CC2` (stereo not shown) the inhibition was 33% (Severe acute respiratory syndrome coronavirus 2; viral replication; 293T/ACE2; 20 µM).
`O=C(C=Cc1ccc(O)c(O)c1)OC1CC(O)(C(=O)O)CC(OC(=O)C=Cc2ccc(O)c(O)c2)C1O` (stereo not shown) has an inhibition of 0% (Severe acute respiratory syndrome coronavirus 2; cytopathic effect; Vero C1008; 12.5 µM).
For `CC(C)C[C@H](NC(=O)[C@H](CO[C@@H]1O[C@H](CO)[C@@H](O[C@@H]2O[C@H](CO)[C@H](O)[C@H](O)[C@H]2O)[C@H](O)[C@H]1O)NC(=O)[C@H](CCCCN)NC(=O)[C@H](CC(C)C)NC(=O)[C@H](C)NC(=O)[C@H](CCCCN)NC(=O)[C@H](CCC(=O)O)NC(=O)C(C)(C)NC(=O)[C@H](CC(C)C)NC(=O)[C@H](CC(N)=O)NC(=O)[C@@H]1CCCN1C(=O)[C@H](CC(C)C)NC(=O)[C@H](Cc1ccccc1)NC(=O)CNC(=O)[C@H](NC(=O)[C@@H](N)Cc1ccc(O)cc1)[C@H](C)O)C(N)=O`, the Ki was 19 nM (OPRD1; ligand displacement, radioligand; pH 7.5, cell membranes).
The inhibition of `Cc1ccc(N2CC3CC(C2)N3C)cc1C(=O)NC1(c2ccc3c4c(cccc24)C(=O)N3C)CC1` is reported as 100% (Severe acute respiratory syndrome coronavirus 2; viral replication; Vero C1008; 12.5 µM).
With `CO/C1=C\C(C)=C\[C@@H](C)[C@@H](O)[C@@H](C)C/C(C)=C/C=C/[C@H](OC)[C@@H]([C@@H](C)[C@@H](O)[C@H](C)C(=O)/C=C/[C@H](C)[C@H](O)C(C)C)OC1=O` the inhibition was 92.4% (Severe acute respiratory syndrome coronavirus 2; viral replication, inhibitor; Calu-3; 50 µM).
The inhibition of `C=CCOC(=O)C12CCC(C)(C)CC1C1=CCC3C4(C)CCC(OC5OC(CO)C(OC6OC(C)C(O)C(O)C6O)C(O)C5OC5OC(C)C(O)C(O)C5O)C(C)(C)C4CCC3(C)C1(C)CC2` (stereo not shown) is reported as 56.3% (Severe acute respiratory syndrome coronavirus 2; viral replication; 293T/ACE2; 20 µM).

A few entries again:
With `C=CCOC(=O)C12CCC(C)(C)CC1C1=CCC3C4(C)CCC(OC5OC(COC(=O)c6ccccc6)C(OC(=O)c6ccccc6)C(OC(=O)c6ccccc6)C5OC(=O)c5ccccc5)C(C)(C)C4CCC3(C)C1(C)CC2` (stereo not shown) the inhibition was 33% (Severe acute respiratory syndrome coronavirus 2; viral replication; 293T/ACE2; 20 µM).
